Measured values pooled from the literature.
Each numbered part is a random draw from the data of one study; scales do not carry over between parts. “And” joins repeats or separate records; there may be more than shown. Positions count from the first letter of the parent shown.
Sequence of UniProt Q9UKR0 (whole entry, looked up): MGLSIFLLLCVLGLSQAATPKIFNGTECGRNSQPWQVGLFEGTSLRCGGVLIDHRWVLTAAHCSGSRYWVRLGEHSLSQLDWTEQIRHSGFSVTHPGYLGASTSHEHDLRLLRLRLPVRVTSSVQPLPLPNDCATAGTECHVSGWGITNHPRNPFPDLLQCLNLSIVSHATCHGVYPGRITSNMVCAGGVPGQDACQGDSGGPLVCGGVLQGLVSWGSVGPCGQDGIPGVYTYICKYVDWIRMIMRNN

Set 1
Species: mouse
Medium: microsomes or S9
Tested at: 2 µM
Time: 0.5 h
SMILES	remaining compound
COC(=O)C1(c2ccccc2)CCN(C(=O)CCn2cncn2)CC1	82%
CSc1nc2ccccc2c(=O)n1-c1ccccc1	1.18%
CNNC(=O)c1cc(Cl)cc(C)c1NC(=O)c1cc(Br)nn1-c1ncccc1Cl	48%

Set 2
Target: CCNB2, cyclin fold, Cln2 fusion (human)
Method: yeast growth competition, sequencing
Medium: yeast
Setting: strong parent motif
Baseline: not given
Direction: higher = stronger binding
Starting sequence: viral docking peptide; YKVKRRLVFGADD; partner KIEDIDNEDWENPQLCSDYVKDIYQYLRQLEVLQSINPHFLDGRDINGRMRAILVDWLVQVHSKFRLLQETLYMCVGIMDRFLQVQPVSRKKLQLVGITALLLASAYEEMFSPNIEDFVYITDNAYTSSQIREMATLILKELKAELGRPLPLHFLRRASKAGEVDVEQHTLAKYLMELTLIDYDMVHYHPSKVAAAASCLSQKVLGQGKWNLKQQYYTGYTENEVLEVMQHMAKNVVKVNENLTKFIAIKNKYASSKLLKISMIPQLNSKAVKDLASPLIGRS
Substitution	normalised enrichment score
YKVKRRLQFGADD [V8Q]	1.22
YKFKRRLVFGADD [V3F]	0.516
YKVKRRMVFGADD [L7M]	0.576
YKVLRRLVFGADD [K4L]	0.661
YKVKRCLVFGADD [R6C]	0.707
YKVCRRLVFGADD [K4C]	0.994
YKVKRRLCFGADD [V8C]	1.77
YKVKRRLVFGCDD [A11C]	1.42

Set 3
SMILES: CCOc1ccc(Nc2c3c(nc4ccccc24)CCC3)cc1
Organism: Leishmania donovani
effect on	cell line	strain	medium	tested at	setting	inhibition
parasite growth		DD8 amphotericin B-resistant	intracellular amastigotes	80 µM		100%
parasite growth		DD8 amphotericin B-resistant	intracellular amastigotes	4 µM		99% and 85% and 91% and 93% and 84%
	THP-1 intracellular amastigotes	DD8 resistant line		20 µM	resistance confirmation	84%

Set 4
SMILES: CCOC(=O)c1ccc(OC(=O)CCCCCNC(=N)N)cc1
target	effect on	action	IC50
trypsin	enzyme activity	inhibitor	12.5 nM
PLAU (Homo sapiens, UniProt P00749)			35.5 nM
Kallikrein-12 (Homo sapiens, UniProt Q9UKR0)			45.3 nM

Some of these lines once more (set 2):
Substitution	normalised enrichment score
YKFKRRLVFGADD [V3F]	0.516
